Measurements of several laboratories.
Compare with care: the assays were run in different laboratories. Numbers after ± are the reported error.
Ryanodine receptor 1: Ryanodine receptor 1 (Oncorhynchus mykiss, UniProt A0A8C7UX14)
OPRD1: Delta-type opioid receptor (OPRD1, Homo sapiens, UniProt P41143)
Sequence of UniProt P41143 (whole entry, looked up): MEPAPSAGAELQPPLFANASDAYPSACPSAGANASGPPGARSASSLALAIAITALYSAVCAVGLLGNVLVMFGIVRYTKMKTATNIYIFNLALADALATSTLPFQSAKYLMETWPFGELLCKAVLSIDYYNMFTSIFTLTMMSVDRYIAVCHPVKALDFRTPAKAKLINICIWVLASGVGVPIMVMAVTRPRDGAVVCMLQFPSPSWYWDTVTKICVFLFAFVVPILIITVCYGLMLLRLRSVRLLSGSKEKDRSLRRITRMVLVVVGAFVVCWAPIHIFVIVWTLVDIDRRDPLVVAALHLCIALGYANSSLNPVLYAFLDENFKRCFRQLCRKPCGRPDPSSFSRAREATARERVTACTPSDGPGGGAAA
CNR1: Cannabinoid receptor 1 (CNR1, Homo sapiens, UniProt P21554)
Sequence of UniProt P21554 (whole entry, looked up): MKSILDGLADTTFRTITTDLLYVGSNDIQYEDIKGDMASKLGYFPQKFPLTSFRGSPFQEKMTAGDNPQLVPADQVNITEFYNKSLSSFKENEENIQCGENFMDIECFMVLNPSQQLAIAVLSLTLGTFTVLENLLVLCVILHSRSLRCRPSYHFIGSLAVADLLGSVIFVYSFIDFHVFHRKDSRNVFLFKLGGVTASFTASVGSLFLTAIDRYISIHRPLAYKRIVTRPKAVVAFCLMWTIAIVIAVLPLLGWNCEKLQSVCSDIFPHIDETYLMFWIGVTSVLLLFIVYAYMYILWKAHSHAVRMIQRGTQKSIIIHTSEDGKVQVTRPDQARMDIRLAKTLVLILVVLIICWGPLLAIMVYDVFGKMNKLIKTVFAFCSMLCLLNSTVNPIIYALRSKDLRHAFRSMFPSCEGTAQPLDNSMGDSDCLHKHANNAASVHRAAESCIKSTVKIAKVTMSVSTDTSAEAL
Sequence of UniProt P18825 (whole entry, looked up): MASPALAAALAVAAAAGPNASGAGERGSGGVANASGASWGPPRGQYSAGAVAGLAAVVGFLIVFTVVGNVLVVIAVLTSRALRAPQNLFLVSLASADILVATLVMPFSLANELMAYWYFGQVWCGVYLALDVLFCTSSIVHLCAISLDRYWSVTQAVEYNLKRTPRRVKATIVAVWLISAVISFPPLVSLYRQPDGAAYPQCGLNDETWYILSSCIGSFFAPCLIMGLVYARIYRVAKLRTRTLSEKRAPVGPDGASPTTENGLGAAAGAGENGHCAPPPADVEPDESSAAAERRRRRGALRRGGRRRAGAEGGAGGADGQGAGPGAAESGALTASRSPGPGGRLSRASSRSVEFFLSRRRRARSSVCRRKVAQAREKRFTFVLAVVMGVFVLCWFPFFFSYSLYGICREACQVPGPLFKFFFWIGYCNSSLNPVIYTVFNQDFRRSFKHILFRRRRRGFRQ
Sequence of UniProt A7XUK7 (whole entry, looked up): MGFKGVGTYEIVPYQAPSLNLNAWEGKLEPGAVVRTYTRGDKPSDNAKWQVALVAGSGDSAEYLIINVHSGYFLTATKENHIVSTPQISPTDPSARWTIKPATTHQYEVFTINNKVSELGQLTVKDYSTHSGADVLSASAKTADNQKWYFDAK
Sequence of UniProt P31424 (whole entry, looked up): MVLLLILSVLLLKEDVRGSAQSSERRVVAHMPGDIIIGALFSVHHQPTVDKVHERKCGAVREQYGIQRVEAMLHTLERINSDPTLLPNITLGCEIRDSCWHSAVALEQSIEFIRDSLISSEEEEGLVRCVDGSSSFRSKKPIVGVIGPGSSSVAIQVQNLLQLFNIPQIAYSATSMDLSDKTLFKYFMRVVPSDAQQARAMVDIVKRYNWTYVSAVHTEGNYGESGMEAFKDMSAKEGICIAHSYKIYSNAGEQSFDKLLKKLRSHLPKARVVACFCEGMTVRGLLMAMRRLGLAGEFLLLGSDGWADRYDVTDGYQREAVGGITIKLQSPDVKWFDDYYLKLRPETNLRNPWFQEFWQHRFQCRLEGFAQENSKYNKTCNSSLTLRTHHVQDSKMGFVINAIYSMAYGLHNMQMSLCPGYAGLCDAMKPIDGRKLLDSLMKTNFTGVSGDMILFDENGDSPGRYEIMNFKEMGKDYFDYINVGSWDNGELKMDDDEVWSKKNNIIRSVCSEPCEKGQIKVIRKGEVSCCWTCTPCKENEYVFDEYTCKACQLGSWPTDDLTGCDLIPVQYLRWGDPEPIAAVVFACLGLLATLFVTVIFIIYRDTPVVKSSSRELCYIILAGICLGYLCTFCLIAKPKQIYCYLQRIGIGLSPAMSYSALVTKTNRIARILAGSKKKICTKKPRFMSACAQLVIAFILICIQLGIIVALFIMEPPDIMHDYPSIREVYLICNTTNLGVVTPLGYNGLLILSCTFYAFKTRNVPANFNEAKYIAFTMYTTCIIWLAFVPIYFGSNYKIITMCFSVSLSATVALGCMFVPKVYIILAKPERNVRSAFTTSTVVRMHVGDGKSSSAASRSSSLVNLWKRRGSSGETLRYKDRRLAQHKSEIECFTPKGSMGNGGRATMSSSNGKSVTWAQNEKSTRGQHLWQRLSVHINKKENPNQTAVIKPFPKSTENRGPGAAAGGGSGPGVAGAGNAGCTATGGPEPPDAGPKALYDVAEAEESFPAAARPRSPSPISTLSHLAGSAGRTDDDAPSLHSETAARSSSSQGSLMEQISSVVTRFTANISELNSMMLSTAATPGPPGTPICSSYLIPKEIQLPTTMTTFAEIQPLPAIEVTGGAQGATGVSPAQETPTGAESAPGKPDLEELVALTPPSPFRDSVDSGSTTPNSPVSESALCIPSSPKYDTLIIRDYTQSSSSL
Sequence of UniProt P06276 (whole entry, looked up): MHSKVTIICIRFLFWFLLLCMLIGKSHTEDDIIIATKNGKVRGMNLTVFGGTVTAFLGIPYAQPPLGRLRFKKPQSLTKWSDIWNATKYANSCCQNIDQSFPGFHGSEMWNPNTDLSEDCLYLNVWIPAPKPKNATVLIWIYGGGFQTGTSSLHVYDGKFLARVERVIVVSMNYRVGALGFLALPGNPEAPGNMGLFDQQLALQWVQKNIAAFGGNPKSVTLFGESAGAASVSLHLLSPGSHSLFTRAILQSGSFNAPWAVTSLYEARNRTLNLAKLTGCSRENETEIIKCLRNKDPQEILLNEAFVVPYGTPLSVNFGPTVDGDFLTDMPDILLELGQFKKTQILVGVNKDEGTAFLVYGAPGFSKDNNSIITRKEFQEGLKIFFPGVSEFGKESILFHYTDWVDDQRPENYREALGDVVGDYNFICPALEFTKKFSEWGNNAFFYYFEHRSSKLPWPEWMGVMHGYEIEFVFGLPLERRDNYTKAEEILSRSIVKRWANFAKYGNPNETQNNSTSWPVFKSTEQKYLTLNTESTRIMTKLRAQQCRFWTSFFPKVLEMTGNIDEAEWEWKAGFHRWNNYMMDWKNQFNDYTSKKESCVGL
Sequence of UniProt P12369 (whole entry, unmodified, looked up): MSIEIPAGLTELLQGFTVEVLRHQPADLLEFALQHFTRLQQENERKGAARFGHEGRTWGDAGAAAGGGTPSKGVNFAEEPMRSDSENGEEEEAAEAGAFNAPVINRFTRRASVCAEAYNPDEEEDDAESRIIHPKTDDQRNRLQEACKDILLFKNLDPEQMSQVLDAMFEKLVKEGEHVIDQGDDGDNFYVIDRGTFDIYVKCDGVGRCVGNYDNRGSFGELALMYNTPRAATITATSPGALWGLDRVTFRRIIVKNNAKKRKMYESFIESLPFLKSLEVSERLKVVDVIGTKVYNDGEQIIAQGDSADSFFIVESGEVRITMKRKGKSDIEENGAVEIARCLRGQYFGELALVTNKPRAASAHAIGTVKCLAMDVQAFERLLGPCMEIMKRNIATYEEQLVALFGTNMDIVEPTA
Sequence of UniProt P17787 (whole entry, looked up): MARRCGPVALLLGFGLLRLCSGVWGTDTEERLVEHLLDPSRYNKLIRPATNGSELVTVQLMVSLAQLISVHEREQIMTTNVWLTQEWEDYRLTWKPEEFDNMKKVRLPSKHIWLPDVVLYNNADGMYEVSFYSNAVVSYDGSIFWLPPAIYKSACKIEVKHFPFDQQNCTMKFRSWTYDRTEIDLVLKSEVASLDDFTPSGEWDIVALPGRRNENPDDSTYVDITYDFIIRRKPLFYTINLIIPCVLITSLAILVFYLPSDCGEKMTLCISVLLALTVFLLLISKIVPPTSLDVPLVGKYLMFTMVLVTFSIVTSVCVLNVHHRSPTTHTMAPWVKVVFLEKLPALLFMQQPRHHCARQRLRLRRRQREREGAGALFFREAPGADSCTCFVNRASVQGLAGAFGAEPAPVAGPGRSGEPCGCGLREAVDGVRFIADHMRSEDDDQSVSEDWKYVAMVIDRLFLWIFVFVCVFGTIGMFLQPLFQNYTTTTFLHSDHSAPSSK
Sequence of UniProt Q9GZQ6 (whole entry, looked up): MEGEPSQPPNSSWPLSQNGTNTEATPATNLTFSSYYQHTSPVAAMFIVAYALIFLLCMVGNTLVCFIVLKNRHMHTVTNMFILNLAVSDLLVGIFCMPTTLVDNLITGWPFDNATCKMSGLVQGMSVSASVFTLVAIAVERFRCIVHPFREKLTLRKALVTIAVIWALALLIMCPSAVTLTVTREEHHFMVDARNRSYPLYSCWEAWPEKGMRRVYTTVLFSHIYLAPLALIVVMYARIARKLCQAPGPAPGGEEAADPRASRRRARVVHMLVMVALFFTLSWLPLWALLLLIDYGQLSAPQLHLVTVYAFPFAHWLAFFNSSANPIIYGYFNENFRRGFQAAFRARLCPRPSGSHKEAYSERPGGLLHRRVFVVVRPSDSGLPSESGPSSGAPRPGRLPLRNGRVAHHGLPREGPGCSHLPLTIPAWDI
Sequence of UniProt Q8NKB0 (whole entry, unmodified, looked up): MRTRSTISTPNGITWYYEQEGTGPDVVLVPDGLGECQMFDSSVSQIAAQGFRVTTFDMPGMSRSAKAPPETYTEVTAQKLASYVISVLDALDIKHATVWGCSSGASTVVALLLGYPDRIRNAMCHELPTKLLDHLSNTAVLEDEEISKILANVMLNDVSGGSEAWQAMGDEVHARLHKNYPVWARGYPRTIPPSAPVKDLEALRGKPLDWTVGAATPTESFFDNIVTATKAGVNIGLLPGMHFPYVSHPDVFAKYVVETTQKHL

c1ccc(CCN2CCCCC2)cc1  Ki (NMDA receptor, rat; binding; rat brain; 60 min, 4 °C, with: [3H]TCP 5 nM): > 10 µM
Clc1cc(Cl)c(-c2c(Cl)c(Cl)cc(Cl)c2Cl)cc1Cl  Emax (Ryanodine receptor 1; [3H]ryanodine binding; rainbow trout, skeletal muscle microsomes; up to 20 µM; relative to: DMSO): 135 ± 3.27%
CP(=O)(O)CCC(N)C(=O)O (stereo not shown)  herbicidal activity (Euphorbia heterophylla; 125 g/ha, 13 days, EPHHL, post-emergence spray; relative to: untreated (0%), complete kill (100%)): 70%
Clc1ccc(Cl)c(-c2cc(Cl)c(Cl)cc2Cl)c1  EC20 (Ryanodine receptor 1; [3H]ryanodine binding; rainbow trout, skeletal muscle microsomes): 1.03 µM
CC(C)c1ccc2c(c1)CC[C@H]1[C@](C)(CN)CCC[C@]21C  IC50 (WM278.1 melanoma (vertical growth phase); cell viability, MTS; 48 h): 4.04 ± 0.04 µM
CCCCSS(C)(=O)=O  GABA current (Gabrg2/GABRB2/Gabra1 (Rattus norvegicus, UniProt P18508+P47870+P62813, C260A/C282A/C312A/C319A/C341A/N289C); covalent modifier, two-electrode voltage clamp; Xenopus laevis oocytes; 0.5 mM, labelled without GABA, with: GABA EC10; relative to: before labelling): increased
CC1N=C(c2ccccc2F)c2cc(Nc3ccc(Cl)cc3)ccc2NC1=O (stereo not shown)  inhibition (ADRA2C (Homo sapiens, UniProt P18825); ligand displacement, radioligand; 10 µM): 88%
Cc1cccc(Oc2ccc(C(=O)N[C@H](CN3CCN(c4cccc(O)c4)[C@@H](C)C3)C(C)C)cc2)c1  Ke (OPRD1; antagonist; CHO; with: DPDPE): 131 ± 44 nM
Nc1ncnc2c1ncn2[C@H]1C[C@H](O)[C@@H](COP(=O)(O)OP(=O)(O)OP(=O)(O)O)O1  misincorporation frequency (DNA polymerase IV, with DNA (dbh, Saccharolobus solfataricus, UniProt Q97W02); nucleotide incorporation opposite dC, single-turnover extension of lesion bypass product; lesion bypass extension, with: 21/26-mer dG-C8-N-ABA primer-template): 3.8%
anthraquinone-neomycin  binding site size (poly(dA)•2poly(dT) DNA triplex; DNA binding, UV thermal denaturation; concentration not given): 7.5 base triplets
C=C1C[C@@H]2[C@H](CC[C@]3(C)C(=O)CC[C@@H]23)[C@@]2(C)C=CC(=O)C=C12  median plasma concentration (LC-MS/MS; postmenopausal breast cancer women, plasma; oral, 25 mg/day, 2 h, no prior chemotherapy): 8.7 ng/mL
Cc1ncc2n1-c1ccc(Cl)cc1C(c1ccccc1F)=NC2  AUC(0-inf) LS mean (healthy men, plasma; oral, 7.5 mg, without amenamevir): 113 ng·h/mL
CN[C@@](C)(C[18F])C(=O)O  tracer uptake (SK-OV-3 tumour model; host not given, bone; 1 h, tumour-bearing): 2.3 %ID/g
CC(C)(C#N)CCCn1nc(C(=O)NC(C)(C)c2cccc(C(N)=O)c2)c2ccccc21  Emax (CNR1; calcium mobilization, agonist; CHO-K1 expressing Gαq16; relative to: CP55,940 maximum): 94 ± 2%
CN1CC[C@@]2(C)c3cc(OC(=O)Nc4ccccc4)ccc3N(C)[C@@H]12  time to full activity recovery (Cholinesterase (BCHE, Homo sapiens, UniProt P06276); inhibitor, immobilized enzyme reactor, HPLC-UV; immobilized recombinant human enzyme; concentration not given, flushing after complete inhibition): < 2 h
isotetrandrine  retention time (Heat shock protein HSP 90-alpha, C-terminal domain (HSP90AA1, Homo sapiens, UniProt P07900); binding, zonal affinity chromatography; pH 7.4, 25 °C): 25.7 min
N=C(N)NCCNC(=O)C1(Nc2ccccc2)CCN(Cc2ccccc2)CC1  highest concentration inactive (NPFFR1 (Homo sapiens, UniProt Q9GZQ6); receptor activation, agonist): ≤ 10 µM
N=C(N)NCCC[C@@H]1NC(=O)[C@H](CCCCNC(=O)CNC(=O)CNC(=O)CNC(=O)CC[C@H](NC(=O)CCOCCOCCOCCOCCNC(=O)c2ccc(NN)nc2)C(=O)NCC(=O)NCC(=O)NCC(=O)NCCCC[C@@H]2NC(=O)[C@@H](Cc3ccccc3)NC(=O)[C@H](CC(=O)O)NC(=O)CNC(=O)[C@H](CCCNC(=N)N)NC2=O)NC(=O)[C@@H](Cc2ccccc2)NC(=O)[C@H](CC(=O)O)NC(=O)CNC1=O [technetium-99m labelled]  tissue uptake (γ-counting; female athymic nude mice, U-87 MG xenograft, eyes; intravenous, 1 h): 1.59 ± 0.17 %ID/g
[123I]c1cncc(OC[C@@H]2CCN2)c1  tissue/plasma ratio (SPECT; human, brain cortex; intravenous bolus plus infusion, 7.6 mCi; relative to: plasma): 29.1
O=C(OCC1CCN(CCCc2ccccc2)CC1)c1ccccc1-c1ccccc1  potency fold change (Neuronal acetylcholine receptor; alpha4/beta2 (Homo sapiens, UniProt P17787+P43681); concentration not given; relative to: amide analogue over parent scaffold): 1.4
O=C1C[C@@H](c2ccc(O)c(O)c2)Oc2cc(O)cc(O)c21  substrate inhibition onset (SULT1A1 (Homo sapiens, UniProt P50225); substrate; recombinant enzyme): > 16 µM
C[C@@H]1CN(c2cccnc2)C(=O)c2cc(COc3ccc(Cl)cn3)nn21  activity class (Grm5 (Rattus norvegicus, UniProt P31424); calcium mobilisation, allosteric modulator; rat mGlu5-expressing cells; concentration not given): inactive
CCOc1ccccc1S(=O)(=O)N1CC(c2nc(-c3ccc(F)cc3)no2)C1  activity (Calcium-activated potassium channel subunit alpha-1, with beta-3 subunit (KCNMA1, Homo sapiens, UniProt Q12791); HEK293; 30 µM): inactive
COc1cc2cc(c1Cl)N(C)C(=O)C[C@H](OC(=O)[C@H](C)N(C)C(=O)CCSC)[C@]1(C)O[C@H]1[C@H](C)[C@@H]1C[C@@](O)(NC(=O)O1)[C@H](OC)/C=C/C=C(\C)C2  affinity ratio (microtubules, MAP-rich (bovine); relative to: microtubule sites over soluble tubulin): 9 fold
Nc1ncnc2c1ncn2[C@@H]1O[C@@H]2COP(O)(=S)O[C@H]2[C@H]1O (stereo partly shown)  selectivity ratio (cAMP-dependent protein kinase type II-beta regulatory subunit, holoenzyme with catalytic subunit (Prkar2b, Rattus norvegicus, UniProt P12369, S112A); PKA holoenzyme activation, activator, fluorescence anisotropy; relative to: RIIβ over RIα, higher = RIIβ-selective): 0.7
CC(C)C[C@H](N)C(=O)O  slope of EC50 vs cytoplasmic level (SPS-sensor component SSY1 (SSY1, Saccharomyces cerevisiae, UniProt Q03770); cytoplasmic volume 2 ml/g DW): 0.003
N=C(N)NCCC[C@@H]1NC(=O)[C@H](CCCCNC(=O)[C@H](CC(=O)O)NC(=O)[C@H](CC(=O)O)NC(=O)[C@H](CC(=O)O)NC(=O)CC[C@H](NC(=O)CCOCCOCCOCCOCCNC(=O)c2ccc(NN)nc2)C(=O)N[C@@H](CC(=O)O)C(=O)N[C@@H](CC(=O)O)C(=O)N[C@@H](CC(=O)O)C(=O)NCCCC[C@@H]2NC(=O)[C@@H](Cc3ccccc3)NC(=O)[C@H](CC(=O)O)NC(=O)CNC(=O)[C@H](CCCNC(=N)N)NC2=O)NC(=O)[C@@H](Cc2ccccc2)NC(=O)[C@H](CC(=O)O)NC(=O)CNC1=O [technetium-99m labelled]  tissue uptake (γ-counting; female athymic nude mice, U-87 MG xenograft, intestine; intravenous, 2 h): 4.74 ± 0.33 %ID/g
O=C(O)C[C@@H]1CC[C@H](NC(=O)Cc2cccs2)B(O)O1  turnover number (ampC (Burkholderia multivorans, UniProt A0A0H3KN52); 15 min, with: nitrocefin): 200
Clc1ccc(Cl)c(-c2cccc(Cl)c2Cl)c1  EC20 (Ryanodine receptor 1; [3H]ryanodine binding; rainbow trout, skeletal muscle microsomes): 5.35 µM
Cc1cc(C(=O)N[C@H](CN2CCN(c3cccc(O)c3)[C@@H](C)C2)C(C)C)ccc1Oc1ccccc1  Ke (OPRD1; antagonist; CHO; with: DPDPE): 435 ± 140 nM
O[C@H](CN1CC[C@H](CCOC(c2ccccc2)c2ccccc2)[C@@H](O)C1)c1ccc(F)cc1  Ki (Slc6a3 (Rattus norvegicus, UniProt P23977); dopamine uptake, inhibitor; rat striatum; with: [3H]dopamine): 0.00297 µM
CC[C@H](C)[C@@H]1NC(=O)[C@H](CCCNC(=N)N)NC(=O)[C@H](CC(=O)O)NC(=O)[C@H](CC(C)C)NC(=O)[C@H](CCCCN)NC(=O)[C@H](CC(C)C)NC(=O)CNC(=O)[C@H](Cc2ccccc2)NC(=O)[C@@H](NC(=O)CNC(=O)[C@H](CCCCN)NC(=O)[C@H](CO)NC(=O)[C@H](CC(C)C)NC(=O)CNC(=O)[C@H](CCCCN)NC(=O)[C@H](CCCCN)NC(=O)[C@H](CC(N)=O)NC(=O)[C@H](C)NC(=O)CNC(=O)[C@H](CCCCN)NC(=O)[C@H](Cc2ccc(O)cc2)NC(=O)[C@H](CCCCN)NC(=O)[C@H](CCCNC(=N)N)NC(=O)[C@H](C)NC(=O)[C@H](CC(N)=O)NC(=O)[C@@H]2CCCN2C(=O)[C@H](Cc2c[nH]cn2)NC(=O)[C@H](CCC(=O)O)NC(=O)[C@H](CCC(N)=O)NC(=O)CNC(=O)[C@@H]2CCCN2)CSSC[C@@H](C(=O)O)NC(=O)CNC(=O)[C@H](CC(C)C)NC(=O)CNC(=O)[C@H](CO)NC(=O)[C@H](CCSC)NC(=O)[C@H](CO)NC(=O)CNC1=O  Emax (measured: urine cGMP/creatinine; human patients with achondroplasia, urine; 15 µg/kg, Emax model vs AUC(0-60 min), Hill 1): 21900 pmol/mg creatinine
C[C@H]1CNCCc2ccc(Cl)cc21  plasma concentration (Sprague-Dawley rat, male, plasma; subcutaneous, 1 mg/kg, 360 min): 1.98 ± 0.16 ng/mL
NC(=O)CN1CCC[C@@H](NC(=O)c2nn(Cc3ccc(F)cc3)c3ccccc23)C1  Emax (CNR1; calcium mobilization, agonist; CHO-K1 expressing Gαq16; relative to: CP55,940 maximum): 117 ± 3%
CC[C@H](C)[C@H](NC(=O)[C@H](C)NC(=O)[C@H](CO)NC(=O)[C@@H](NC(=O)[C@H](CCC(=O)O)NC(=O)[C@H](CCC(=O)O)NC(=O)[C@H](CCC(N)=O)NC(=O)[C@H](CCCCN)NC(=O)[C@H](CCCNC(=N)N)NC(=O)[C@@H](N)CCCCN)C(C)C)C(=O)N[C@H](C(=O)N[C@H](C(=O)N[C@@H](CCC(N)=O)C(=O)N[C@@H](CCCNC(=N)N)C(=O)N[C@@H](C)C(=O)N[C@@H](Cc1ccc(O)cc1)C(=O)N[C@@H](CCCNC(=N)N)C(=O)N[C@@H](CCCNC(=N)N)C(=O)N[C@@H](Cc1ccc(O)cc1)C(=O)N[C@@H](CC(C)C)C(=O)N[C@@H](CC(C)C)C(=O)N[C@@H](CCCCN)C(=O)N[C@@H](CCC(N)=O)C(=O)N[C@@H](CCCCN)C(=O)N[C@H](C(=O)N[C@@H](CCCCN)C(=O)N[C@@H](CCCCN)C(=O)O)C(C)C)[C@@H](C)CC)C(C)C  fluorescence emission increase (Calmodulin (CAM, Paramecium tetraurelia, UniProt P07463); 3 to 1 µM, pH 7.4, 22 °C, Ca2+-bound CaM residues 1-148; relative to: peptide alone): 25%
CC(=O)N[C@H]1[C@H](O[C@H]2[C@@H](O)[C@@H](CO)O[C@@H](O[C@H]3[C@H](O)[C@@H](O)[C@H](OCCN)O[C@@H]3CO)[C@@H]2O)O[C@H](CO)[C@@H](O[C@@H]2O[C@H](CO)[C@H](O[C@H]3O[C@H](CO)[C@H](O)[C@H](O[C@@H]4O[C@H](CO)[C@H](O)[C@H](O)[C@H]4NC(C)=O)[C@H]3O)[C@H](O)[C@H]2O)[C@@H]1O  lectin binding (Agglutinin (Sclerotinia sclerotiorum, UniProt A7XUK7); glycan array; concentration not given, pH 7.4, room temperature): 19900 ± 810 RFU
C[C@H]1CCCC(=O)CCC/C=C/c2cc(O)cc(O)c2C(=O)O1  Km (zhd101 (Clonostachys rosea, UniProt Q8NKB0, D133K/D157K/E171K); substrate, HPLC; 10 min, pH 5.5, 37 °C, 1% acetonitrile): 33.8 ± 0.69 mM
CNC(C)Cc1ccc2c(c1)OCO2 (racemic)  subjective drug effect rating (Drug Effects Questionnaire, measured: Dislike Drug; human; oral, 0.75 mg/kg, mean over session, unit not given; relative to: pre-dose baseline): 12.8
Clc1ccc(-c2ccc(Cl)c(Cl)c2)c(Cl)c1  Emax (Ryanodine receptor 1; [3H]ryanodine binding; rainbow trout, skeletal muscle microsomes; up to 20 µM; relative to: DMSO): 130 ± 4.34%
CC(C)CCCc1ccc2cc(C(=O)O)ccc2c1  potentiation (Glutamate NMDA receptor; Grin1/Grin2b (Grin1/Grin2b, Rattus norvegicus, UniProt P35439+Q00960); decreased, potentiator, two-electrode voltage clamp; Xenopus oocytes; 50 µM, 30 min, with: alkaline phosphatase injection, pregnenolone sulfate 100 µM; relative to: water injection): decreased

For quick reference, copied from above:
CP(=O)(O)CCC(N)C(=O)O (stereo not shown)  herbicidal activity (Euphorbia heterophylla; 125 g/ha, 13 days, EPHHL, post-emergence spray; relative to: untreated (0%), complete kill (100%)): 70%
isotetrandrine  retention time (Heat shock protein HSP 90-alpha, C-terminal domain (HSP90AA1, Homo sapiens, UniProt P07900); binding, zonal affinity chromatography; pH 7.4, 25 °C): 25.7 min
C[C@H]1CNCCc2ccc(Cl)cc21  plasma concentration (Sprague-Dawley rat, male, plasma; subcutaneous, 1 mg/kg, 360 min): 1.98 ± 0.16 ng/mL
anthraquinone-neomycin  binding site size (poly(dA)•2poly(dT) DNA triplex; DNA binding, UV thermal denaturation; concentration not given): 7.5 base triplets
Clc1cc(Cl)c(-c2c(Cl)c(Cl)cc(Cl)c2Cl)cc1Cl  Emax (Ryanodine receptor 1; [3H]ryanodine binding; rainbow trout, skeletal muscle microsomes; up to 20 µM; relative to: DMSO): 135 ± 3.27%
